Literature values that unrelated publications cite.
Protocols differ between the studies behind these lines. In brackets after ≈: the same amount, converted by molar mass.

| SMILES | target or system | test | test system | conditions | scale | measurement | value |
| --- | --- | --- | --- | --- | --- | --- | --- |
| CCCCCc1cc(O)c2c(c1)OC(C)(C)C1CCC(C(=O)O)=CC21 (stereo not shown) | – | – | human, plasma | inhalation of cannabis | reference: THC | plasma level ratio | ~2 fold |
| CCCCCc1cc(O)c2c(c1)OC(C)(C)C1CCC(C)=CC21 (stereo not shown) | – | – | – | – | – | aqueous solubility | 1 to 2 µg/mL (≈ 3.18 to 6.36 µM) |
| CC1(C)N=C(N)N=C(N)N1c1cccc(Cl)c1 | respiratory syncytial virus | – | – | – | reference: cytotoxic over antiviral concentration | selectivity index | > 10000 |
| CCCC(C(=O)c1ccccc1)N1CCCC1 (stereo not shown) | – | – | human, blood | rectal | – | detection time in blood | 20 h |
| CN[C@H](CC(C)C)C(=O)N[C@H]1C(=O)N[C@@H](CC(N)=O)C(=O)N[C@H]2C(=O)N[C@H]3C(=O)N[C@H](C(=O)N[C@H](C(=O)O)c4cc(O)cc(O)c4-c4cc3ccc4O)[C@H](O)c3ccc(c(Cl)c3)Oc3cc2cc(c3O[C@@H]2O[C@H](CO)[C@@H](O)[C@H](O)[C@H]2O[C@H]2C[C@](C)(NCc3ccc(-c4ccc(Cl)cc4)cc3)[C@H](O)[C@H](C)O2)Oc2ccc(cc2Cl)[C@H]1O | – | – | mouse, plasma | intravenous, 75 mg/kg (MTD) | – | Tmax | 15 min |
| CC1(C)N=C(N)N=C(N)N1c1ccc(Cl)c(Cl)c1 | respiratory syncytial virus | – | – | – | reference: cytotoxic over antiviral concentration | selectivity index | > 10000 |
| CC[C@H](C)[C@H](NC(=O)[C@H](CC(=O)O)NC(=O)[C@@H](NC(=O)[C@@H]1CCCN1C(=O)[C@@H](N)CCCNC(=N)N)[C@@H](C)O)C(=O)N[C@@H](CCCCN)C(=O)N[C@H]1CSSC[C@@H]2NC(=O)[C@H](CCCNC(=N)N)NC(=O)CNC(=O)[C@H](CC(N)=O)NC(=O)[C@H]([C@@H](C)O)NC(=O)[C@H](CCCCN)NC(=O)CNC(=O)[C@H](Cc3ccccc3)NC(=O)[C@H](CCCNC(=N)N)NC(=O)[C@H](CO)NC(=O)[C@H](CCCCN)NC(=O)[C@@H]3CSSC[C@@H](C(=O)N[C@@H](Cc4ccccc4)C(=O)O)NC(=O)[C@H](CC(=O)O)NC(=O)[C@H](CSSC[C@H](NC(=O)[C@H](CCC(N)=O)NC(=O)[C@H](Cc4ccc(O)cc4)NC(=O)[C@H](CO)NC(=O)[C@H](CCC(=O)O)NC(=O)[C@H](CO)NC1=O)C(=O)N[C@@H](Cc1ccccc1)C(=O)N1CCC[C@H]1C(=O)N[C@@H](C(C)C)C(=O)N3)NC(=O)[C@H](Cc1ccccc1)NC(=O)CNC(=O)[C@H](CC(N)=O)NC(=O)[C@H](C(C)C)NC2=O | hERG channel | ion current, blocker | HEK293 | – | – | IC50 | 3.3 nM |
| CC[C@H](C)C(=O)N1CCC(NC(=O)Nc2ccc(OC(F)(F)F)c(F)c2)CC1 | human CYP2C8 | inhibitor | – | up to solubility limit | – | inhibition | no inhibition |
| CC[C@H](C)[C@H](N)C(=O)N[C@@H](CC(C)C)C(=O)N[C@@H](CO)C(=O)N[C@@H](C)C(=O)N[C@H](C(=O)N[C@@H](Cc1c[nH]c2ccccc12)C(=O)N[C@@H](CO)C(=O)NCC(=O)N[C@H](C(=O)N[C@@H](CCCCN)C(=O)N[C@@H](CO)C(=O)N[C@@H](CC(C)C)C(=O)N[C@@H](Cc1ccccc1)C(N)=O)[C@@H](C)CC)[C@@H](C)CC | – | – | human erythrocytes | – | – | HC50 | 20 µM |
| CCCCCC1=C(NCC)C(=O)C(C/C=C(\C)CCC=C(C)C)=C(O)C1=O | hERG channel | – | – | concentration not given | – | inhibition | no inhibition |
| O=C(OCC[18F])C1C2CCC(CC1c1ccc(/C=C\I)cc1)N2 (stereo not shown) | SERT | HRRT PET | awake rhesus monkey, medulla | – | – | time to peak uptake | 85 min |
| CCCCCc1cc(O)c2c(c1)OC(C)(C)C1CCC(C)=CC21 (single isomer, unassigned; (-)) | – | – | human, plasma | – | – | fraction unbound | 0.03 |
| CCCCCc1cc(O)c2c(c1)OC(C)(C)C1CCC(C)=CC21 (single isomer, unassigned; (-)) | – | – | human, plasma | inhalation, 10 mg | – | plasma concentration | 350 nM |

For quick reference, copied from above:
| SMILES | target or system | test | test system | conditions | scale | measurement | value |
| --- | --- | --- | --- | --- | --- | --- | --- |
| CCCCCc1cc(O)c2c(c1)OC(C)(C)C1CCC(C)=CC21 (stereo not shown) | – | – | – | – | – | aqueous solubility | 1 to 2 µg/mL (≈ 3.18 to 6.36 µM) |
